Measured values collected from several papers.
± marks the error that the study gave.
UniProt P08183, sequence (whole entry, looked up): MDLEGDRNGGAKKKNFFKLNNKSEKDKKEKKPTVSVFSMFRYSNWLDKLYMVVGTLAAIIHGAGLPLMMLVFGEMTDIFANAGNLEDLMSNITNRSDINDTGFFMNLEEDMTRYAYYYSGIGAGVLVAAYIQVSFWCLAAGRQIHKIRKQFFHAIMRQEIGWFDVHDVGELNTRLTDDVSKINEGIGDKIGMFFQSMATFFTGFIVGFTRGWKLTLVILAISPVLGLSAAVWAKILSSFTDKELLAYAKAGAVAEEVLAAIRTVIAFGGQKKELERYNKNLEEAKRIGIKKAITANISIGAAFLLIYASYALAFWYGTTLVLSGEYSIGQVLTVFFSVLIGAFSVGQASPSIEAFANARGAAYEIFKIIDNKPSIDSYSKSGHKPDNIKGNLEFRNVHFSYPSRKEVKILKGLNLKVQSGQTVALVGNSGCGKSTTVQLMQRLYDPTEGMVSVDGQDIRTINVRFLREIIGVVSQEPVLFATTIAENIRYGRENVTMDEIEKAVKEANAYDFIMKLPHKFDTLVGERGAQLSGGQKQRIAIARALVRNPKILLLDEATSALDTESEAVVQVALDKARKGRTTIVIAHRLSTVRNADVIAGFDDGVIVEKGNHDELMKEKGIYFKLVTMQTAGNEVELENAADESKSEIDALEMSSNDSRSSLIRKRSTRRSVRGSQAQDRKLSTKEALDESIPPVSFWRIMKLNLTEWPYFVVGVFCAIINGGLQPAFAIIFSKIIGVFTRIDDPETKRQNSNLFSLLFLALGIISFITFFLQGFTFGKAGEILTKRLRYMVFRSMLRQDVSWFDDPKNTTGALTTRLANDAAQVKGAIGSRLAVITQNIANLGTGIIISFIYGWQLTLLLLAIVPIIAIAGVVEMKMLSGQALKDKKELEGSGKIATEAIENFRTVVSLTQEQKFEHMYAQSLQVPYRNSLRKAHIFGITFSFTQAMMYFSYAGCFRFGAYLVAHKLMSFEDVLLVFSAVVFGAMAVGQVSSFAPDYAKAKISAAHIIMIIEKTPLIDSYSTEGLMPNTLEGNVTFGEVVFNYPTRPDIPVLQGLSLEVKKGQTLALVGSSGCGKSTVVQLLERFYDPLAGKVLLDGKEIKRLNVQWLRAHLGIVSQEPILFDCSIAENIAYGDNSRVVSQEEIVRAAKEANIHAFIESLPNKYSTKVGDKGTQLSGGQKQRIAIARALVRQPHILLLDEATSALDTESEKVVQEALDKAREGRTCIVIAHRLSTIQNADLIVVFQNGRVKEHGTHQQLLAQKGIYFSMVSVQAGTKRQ
UniProt P10632, sequence (whole entry, looked up): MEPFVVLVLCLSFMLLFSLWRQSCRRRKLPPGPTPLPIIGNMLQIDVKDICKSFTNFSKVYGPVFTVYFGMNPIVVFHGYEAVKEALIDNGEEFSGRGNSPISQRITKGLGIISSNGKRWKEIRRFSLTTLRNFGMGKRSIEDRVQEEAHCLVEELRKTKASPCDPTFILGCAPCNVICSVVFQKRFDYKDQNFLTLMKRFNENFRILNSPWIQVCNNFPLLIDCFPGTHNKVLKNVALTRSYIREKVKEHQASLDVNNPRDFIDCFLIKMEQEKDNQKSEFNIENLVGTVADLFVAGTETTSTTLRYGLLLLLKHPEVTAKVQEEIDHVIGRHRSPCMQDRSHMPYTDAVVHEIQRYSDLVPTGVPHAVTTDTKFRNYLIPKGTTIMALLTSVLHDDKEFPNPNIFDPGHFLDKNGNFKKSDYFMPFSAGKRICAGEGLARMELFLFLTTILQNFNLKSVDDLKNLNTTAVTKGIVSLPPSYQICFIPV

| Compound | tested on | assay | test system | setting | quantity | result |
| --- | --- | --- | --- | --- | --- | --- |
| O=C(O)CCC(=O)O.[2H]C([2H])([2H])Oc1cc(C)c2[nH]ccc2c1CN1CC[C@@H](C2CC2)C[C@H]1c1ccc(C(=O)O)cc1 |  | LC-MS/MS, median | human, plasma | 600 mg, single dose, fasting | Tmax | 4 h |
| CC[C@H]1[C@@H](O)[C@@H]2[C@H](CC[C@]3(C)[C@@H]([C@H](C)CCNC(=O)NS(=O)(=O)c4ccc(C(C)(C)C)cc4)CC[C@@H]23)[C@@]2(C)CC[C@@H](O)C[C@@H]12 | ABCB1 (Homo sapiens, UniProt P08183) | substrate | human, plasma | dose not given, together with: quinidine | AUC(0-inf) mean | 388 ng·h/mL |
| C=CC(=O)NC1CCN(c2ncc3ncnc(Nc4ccc(Oc5ccc6c(c5)ncn6C)c(C)c4)c3n2)CC1 |  |  | male beagle dog, plasma | oral, 3 mg/kg, pentagastrin pretreatment | Tmax | 4 h |
| CCN1CCN(Cc2ccc(Nc3ncc(F)c(-c4cc(F)c5nc6n(c5c4)[C@H](C)CCC6)n3)nc2)CC1 |  |  | human, plasma | 400 mg multiple dosing, median | Tmax | 6.97 h |
| CC[C@H](CO)N(CCN(N=O)[C@H](CC)CO)N=O | Salmonella typhimurium | plate incorporation | TA1535, water | 150 µg/plate, without S9 test 2 | revertant colonies per plate | 22.3 ± 4 |
| Cc1nc(-c2cnc(NC(C)C)n(C)c2=O)ccc1Oc1ccnc(-c2cnn(C)c2)c1 |  |  | Beagle dog, male, plasma | intravenous, 1 mg/kg | Tmax | 0.14 h |
| Cl.[2H]C([2H])([2H])CC(=O)c1cnc(NC(=O)C2CC2)cc1Nc1cccc(-c2ncn(C([2H])([2H])[2H])n2)c1OC |  |  | human, fed, plasma | oral, 25 mg, single dose, liquid formulation | Tmax | 4 h |
| CC(=O)[C@]1(O)Cc2c(O)c3c(c(O)c2[C@@H](O[C@H]2C[C@H](N)[C@H](O)[C@H](C)O2)C1)C(=O)c1ccccc1C3=O | Toxoplasma gondii | bradyzoite growth |  | glutamine-induced bradyzoites, glucose-free medium | EC50 | 820 nM |
| Cn1c(C(F)(F)F)cc(=O)n(-c2cc(Oc3cccnc3OCC(=O)O)c(Cl)cc2F)c1=O |  |  | beagle dog, female, plasma | oral capsule, 100 mg/kg/day epyrifenacil, week 13, 90-day study | Tmax | 3.5 h |
| COc1ccc(C[C@@H](C)[C@@H](C)Cc2ccc(OC)c(OC)c2)cc1OC |  |  | beagle dog female, plasma | oral, 300 mg/kg/day, day 28, median | Tmax | 1 h |
| CCn1cc(C(=O)N2CCOCC2)c(=O)c2cc(NC3Cc4ccccc4C3)cnc21 |  |  | human, fed | oral suspension, 1200 mg/day twice daily, day 8, median | Tmax | 2.5 h |
| C=CCn1c(=O)c2cnc(Nc3ccc(N4CCN(C)CC4)cc3)nc2n1-c1cccc(C(C)(C)O)n1 |  |  | human, plasma | oral, 125 mg twice daily, -5-day lead-in, monotherapy lead-in | Tmax | 2.1 h |
| CCOc1cc(CC(=O)N[C@@H](CC(C)C)c2ccccc2N2CCCCC2)ccc1C(=O)O | Cytochrome P450 2C8 (CYP2C8, Homo sapiens, UniProt P10632) |  | human, plasma | 0.5 mg, day 1, median | AUC extrapolated fraction | 2.87% |

Excerpt of the above:
| Compound | tested on | assay | test system | setting | quantity | result |
| --- | --- | --- | --- | --- | --- | --- |
| CCn1cc(C(=O)N2CCOCC2)c(=O)c2cc(NC3Cc4ccccc4C3)cnc21 |  |  | human, fed | oral suspension, 1200 mg/day twice daily, day 8, median | Tmax | 2.5 h |
| C=CCn1c(=O)c2cnc(Nc3ccc(N4CCN(C)CC4)cc3)nc2n1-c1cccc(C(C)(C)O)n1 |  |  | human, plasma | oral, 125 mg twice daily, -5-day lead-in, monotherapy lead-in | Tmax | 2.1 h |
